{"data": "Published values pooled from the literature", "note": "Numbered parts are unrelated; each lists some results of a single study. Values joined by “and” are separate records of one study, mostly repeats; a detail may differ. Changes are numbered by the printed parent chain.", "chain of UniProt O15197 (whole entry, looked up)": "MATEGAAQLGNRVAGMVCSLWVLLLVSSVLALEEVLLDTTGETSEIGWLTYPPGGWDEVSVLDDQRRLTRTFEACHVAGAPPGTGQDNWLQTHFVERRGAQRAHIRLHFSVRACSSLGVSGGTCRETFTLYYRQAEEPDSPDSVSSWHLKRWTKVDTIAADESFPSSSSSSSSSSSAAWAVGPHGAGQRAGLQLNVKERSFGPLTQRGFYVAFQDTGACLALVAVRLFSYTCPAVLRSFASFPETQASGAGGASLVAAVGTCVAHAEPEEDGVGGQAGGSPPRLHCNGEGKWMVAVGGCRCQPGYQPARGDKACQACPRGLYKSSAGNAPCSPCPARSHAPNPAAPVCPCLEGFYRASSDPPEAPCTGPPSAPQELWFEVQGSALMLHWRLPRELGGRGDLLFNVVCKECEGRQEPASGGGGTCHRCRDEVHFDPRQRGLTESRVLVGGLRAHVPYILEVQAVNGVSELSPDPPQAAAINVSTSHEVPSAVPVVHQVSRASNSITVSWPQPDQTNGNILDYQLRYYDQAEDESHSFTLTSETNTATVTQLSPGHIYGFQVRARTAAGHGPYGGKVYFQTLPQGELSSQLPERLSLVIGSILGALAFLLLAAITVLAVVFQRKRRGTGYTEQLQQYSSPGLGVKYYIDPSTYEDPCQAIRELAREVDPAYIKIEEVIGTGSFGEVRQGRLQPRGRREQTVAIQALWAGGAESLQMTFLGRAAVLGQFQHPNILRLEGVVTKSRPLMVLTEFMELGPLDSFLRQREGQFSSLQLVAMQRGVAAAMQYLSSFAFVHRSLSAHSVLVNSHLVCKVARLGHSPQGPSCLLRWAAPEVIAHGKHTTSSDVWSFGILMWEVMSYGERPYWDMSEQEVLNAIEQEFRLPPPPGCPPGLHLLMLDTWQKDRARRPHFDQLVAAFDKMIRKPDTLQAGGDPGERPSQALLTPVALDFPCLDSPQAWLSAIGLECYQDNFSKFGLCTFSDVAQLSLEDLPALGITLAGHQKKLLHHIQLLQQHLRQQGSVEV", "chain of UniProt Q06418 (whole entry, looked up)": "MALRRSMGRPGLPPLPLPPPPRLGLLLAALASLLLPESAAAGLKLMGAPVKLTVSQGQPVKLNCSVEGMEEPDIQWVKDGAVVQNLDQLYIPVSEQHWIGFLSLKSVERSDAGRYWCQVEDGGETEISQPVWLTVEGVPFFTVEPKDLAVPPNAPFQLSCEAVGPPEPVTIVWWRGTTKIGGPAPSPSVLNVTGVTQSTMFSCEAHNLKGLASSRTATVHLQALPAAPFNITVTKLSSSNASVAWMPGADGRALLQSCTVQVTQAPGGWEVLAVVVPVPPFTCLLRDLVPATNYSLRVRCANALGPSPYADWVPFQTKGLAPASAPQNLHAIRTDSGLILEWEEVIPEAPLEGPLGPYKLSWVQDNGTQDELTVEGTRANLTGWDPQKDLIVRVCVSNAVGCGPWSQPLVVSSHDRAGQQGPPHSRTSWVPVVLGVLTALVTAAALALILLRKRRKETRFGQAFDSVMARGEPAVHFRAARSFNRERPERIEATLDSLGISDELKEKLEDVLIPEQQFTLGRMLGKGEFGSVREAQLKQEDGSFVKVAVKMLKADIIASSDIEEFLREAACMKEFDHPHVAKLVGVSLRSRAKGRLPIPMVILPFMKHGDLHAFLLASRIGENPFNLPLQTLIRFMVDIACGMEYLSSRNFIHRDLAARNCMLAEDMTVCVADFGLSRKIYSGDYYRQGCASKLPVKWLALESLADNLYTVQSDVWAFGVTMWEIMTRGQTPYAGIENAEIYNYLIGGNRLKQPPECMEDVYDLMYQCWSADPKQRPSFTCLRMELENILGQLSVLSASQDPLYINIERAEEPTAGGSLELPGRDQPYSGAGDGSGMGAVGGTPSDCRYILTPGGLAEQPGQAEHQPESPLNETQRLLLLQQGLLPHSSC", "chain of UniProt P11309 (whole entry, looked up)": "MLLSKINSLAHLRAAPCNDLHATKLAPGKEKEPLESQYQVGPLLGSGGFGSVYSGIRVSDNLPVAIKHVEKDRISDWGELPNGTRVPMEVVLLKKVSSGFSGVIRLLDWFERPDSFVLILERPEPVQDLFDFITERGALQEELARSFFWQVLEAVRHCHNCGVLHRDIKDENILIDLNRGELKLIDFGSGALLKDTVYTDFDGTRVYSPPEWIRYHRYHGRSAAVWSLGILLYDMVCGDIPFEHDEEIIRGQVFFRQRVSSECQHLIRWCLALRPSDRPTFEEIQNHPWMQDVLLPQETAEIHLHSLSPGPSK", "chain of UniProt P53667 (whole entry, looked up)": "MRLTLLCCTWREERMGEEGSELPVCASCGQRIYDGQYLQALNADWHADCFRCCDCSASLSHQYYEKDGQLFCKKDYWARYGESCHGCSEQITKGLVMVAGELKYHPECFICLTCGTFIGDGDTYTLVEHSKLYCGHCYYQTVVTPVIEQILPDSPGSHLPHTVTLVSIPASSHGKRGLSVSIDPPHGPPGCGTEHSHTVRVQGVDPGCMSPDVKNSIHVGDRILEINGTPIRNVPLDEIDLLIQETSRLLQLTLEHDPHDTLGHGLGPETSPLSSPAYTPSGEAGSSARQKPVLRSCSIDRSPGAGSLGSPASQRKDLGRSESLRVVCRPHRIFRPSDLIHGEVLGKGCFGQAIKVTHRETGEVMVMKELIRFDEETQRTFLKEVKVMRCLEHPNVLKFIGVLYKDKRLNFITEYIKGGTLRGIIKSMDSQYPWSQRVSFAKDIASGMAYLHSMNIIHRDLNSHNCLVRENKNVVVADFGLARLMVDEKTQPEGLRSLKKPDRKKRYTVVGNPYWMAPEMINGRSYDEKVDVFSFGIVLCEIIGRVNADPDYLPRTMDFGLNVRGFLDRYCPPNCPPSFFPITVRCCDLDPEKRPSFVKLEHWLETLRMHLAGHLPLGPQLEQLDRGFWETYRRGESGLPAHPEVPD", "chain of UniProt Q12866 (whole entry, looked up)": "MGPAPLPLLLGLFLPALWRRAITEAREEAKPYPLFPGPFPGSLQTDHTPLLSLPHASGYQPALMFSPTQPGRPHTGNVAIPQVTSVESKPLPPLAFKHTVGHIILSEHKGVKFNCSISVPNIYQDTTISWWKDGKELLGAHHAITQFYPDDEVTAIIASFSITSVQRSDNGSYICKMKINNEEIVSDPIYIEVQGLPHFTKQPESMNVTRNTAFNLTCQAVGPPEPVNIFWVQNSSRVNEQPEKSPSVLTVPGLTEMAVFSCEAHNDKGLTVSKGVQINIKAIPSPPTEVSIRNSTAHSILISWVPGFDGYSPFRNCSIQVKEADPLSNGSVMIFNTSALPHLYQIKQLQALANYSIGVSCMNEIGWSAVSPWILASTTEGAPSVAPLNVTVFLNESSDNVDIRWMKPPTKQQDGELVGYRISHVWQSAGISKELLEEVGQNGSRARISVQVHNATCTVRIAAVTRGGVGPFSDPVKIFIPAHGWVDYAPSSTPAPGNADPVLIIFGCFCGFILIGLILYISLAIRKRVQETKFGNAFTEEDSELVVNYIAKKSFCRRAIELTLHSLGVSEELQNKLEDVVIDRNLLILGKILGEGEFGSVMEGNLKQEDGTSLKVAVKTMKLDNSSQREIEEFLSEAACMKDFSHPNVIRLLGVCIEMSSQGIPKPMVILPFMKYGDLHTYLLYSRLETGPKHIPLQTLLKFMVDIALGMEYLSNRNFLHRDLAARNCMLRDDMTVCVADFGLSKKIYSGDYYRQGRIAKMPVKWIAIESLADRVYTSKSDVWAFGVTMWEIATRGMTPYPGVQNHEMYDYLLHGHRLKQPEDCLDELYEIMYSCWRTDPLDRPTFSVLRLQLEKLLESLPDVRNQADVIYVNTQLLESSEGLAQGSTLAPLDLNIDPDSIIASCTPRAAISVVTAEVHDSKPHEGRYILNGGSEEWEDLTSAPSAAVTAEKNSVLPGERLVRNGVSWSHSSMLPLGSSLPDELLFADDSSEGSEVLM", "chain of UniProt P07332 (whole entry, looked up)": "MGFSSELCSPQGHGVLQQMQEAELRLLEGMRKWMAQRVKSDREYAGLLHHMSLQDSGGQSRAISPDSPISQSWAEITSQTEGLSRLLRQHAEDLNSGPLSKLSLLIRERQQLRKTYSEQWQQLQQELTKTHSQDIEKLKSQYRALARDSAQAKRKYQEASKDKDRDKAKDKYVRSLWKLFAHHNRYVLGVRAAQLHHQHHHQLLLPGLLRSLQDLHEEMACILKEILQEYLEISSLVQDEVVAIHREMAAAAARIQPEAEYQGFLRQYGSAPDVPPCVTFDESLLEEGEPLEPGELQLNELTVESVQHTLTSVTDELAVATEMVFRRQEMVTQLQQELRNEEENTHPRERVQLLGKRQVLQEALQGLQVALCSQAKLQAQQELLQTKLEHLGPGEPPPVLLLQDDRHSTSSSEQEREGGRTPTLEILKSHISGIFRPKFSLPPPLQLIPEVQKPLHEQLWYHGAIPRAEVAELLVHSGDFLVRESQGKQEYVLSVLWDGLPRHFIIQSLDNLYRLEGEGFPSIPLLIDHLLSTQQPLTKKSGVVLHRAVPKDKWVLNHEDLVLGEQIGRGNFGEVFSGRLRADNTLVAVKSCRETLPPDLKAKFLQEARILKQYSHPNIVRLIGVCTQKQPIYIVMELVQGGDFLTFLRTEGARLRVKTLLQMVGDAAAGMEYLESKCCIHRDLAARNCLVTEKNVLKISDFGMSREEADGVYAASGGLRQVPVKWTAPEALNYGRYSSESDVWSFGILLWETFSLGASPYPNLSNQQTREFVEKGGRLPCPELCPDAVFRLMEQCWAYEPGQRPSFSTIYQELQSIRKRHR", "chain of UniProt P50750 (whole entry, looked up)": "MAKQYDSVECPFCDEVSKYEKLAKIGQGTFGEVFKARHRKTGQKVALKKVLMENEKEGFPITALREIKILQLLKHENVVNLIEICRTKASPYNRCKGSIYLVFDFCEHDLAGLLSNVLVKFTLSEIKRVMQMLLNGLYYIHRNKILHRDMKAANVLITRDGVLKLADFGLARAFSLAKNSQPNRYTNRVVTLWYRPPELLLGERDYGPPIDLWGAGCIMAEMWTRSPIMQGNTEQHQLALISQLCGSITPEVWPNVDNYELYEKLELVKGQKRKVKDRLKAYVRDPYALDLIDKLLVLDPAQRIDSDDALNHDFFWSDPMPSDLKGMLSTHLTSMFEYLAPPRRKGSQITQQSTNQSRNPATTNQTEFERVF"}
{"data": "Sample 1", "SMILES": "COc1ccc2cc(OCC3(C(=O)O)CN(C(=O)c4ccc(F)cc4)C3)ccc2c1", "tested at": "1 µM"}
{"target": "Death-associated protein kinase 1 (DAPK1, Homo sapiens, UniProt P53355)", "observed": "cell-free assay", "method": "competition with immobilised ligand", "remaining binding": "100%"}
{"target": "Tyrosine-protein kinase receptor TYRO3 (TYRO3, Homo sapiens, UniProt Q06418)", "observed": "cell-free assay", "method": "competition with immobilised ligand", "remaining binding": "100%"}
{"target": "Tyrosine-protein kinase Fes/Fps (FES, Homo sapiens, UniProt P07332)", "observed": "cell-free assay", "method": "competition with immobilised ligand", "remaining binding": "100%"}
{"target": "LIM domain kinase 1 (LIMK1, Homo sapiens, UniProt P53667)", "observed": "cell-free assay", "method": "competition with immobilised ligand", "remaining binding": "100%"}
{"target": "Tyrosine-protein kinase SYK (SYK, Homo sapiens, UniProt P43405)", "observed": "cell-free assay", "method": "competition with immobilised ligand", "remaining binding": "64%"}
{"target": "cAMP-dependent protein kinase catalytic subunit alpha (PRKACA, Homo sapiens, UniProt P17612)", "observed": "cell-free assay", "method": "competition with immobilised ligand", "remaining binding": "100%"}
{"target": "Tyrosine-protein kinase ABL1, phosphorylated (ABL1, Homo sapiens, UniProt P00519, F317I)", "observed": "binding", "remaining binding": "100%"}
{"target": "Ephrin type-B receptor 6 (EPHB6, Homo sapiens, UniProt O15197)", "observed": "cell-free assay", "method": "competition with immobilised ligand", "remaining binding": "100%"}
{"target": "Mitogen-activated protein kinase kinase kinase kinase 1 (MAP4K1, Homo sapiens, UniProt Q92918)", "observed": "cell-free assay", "method": "competition with immobilised ligand", "remaining binding": "95%"}
{"target": "Cyclin-dependent kinase 5 (CDK5, Homo sapiens, UniProt Q00535)", "observed": "cell-free assay", "method": "competition with immobilised ligand", "remaining binding": "100%"}
{"target": "Cyclin-dependent kinase 9 (CDK9, Homo sapiens, UniProt P50750)", "observed": "cell-free assay", "method": "competition with immobilised ligand", "remaining binding": "100%"}
{"target": "Epidermal growth factor receptor (EGFR, Homo sapiens, UniProt P00533, G719C)", "observed": "cell-free assay", "method": "competition with immobilised ligand", "remaining binding": "100%"}
{"target": "Phosphatidylinositol 4-kinase beta (PI4KB, Homo sapiens, UniProt Q9UBF8)", "observed": "cell-free assay", "method": "competition with immobilised ligand", "remaining binding": "100%"}
{"target": "Ephrin type-B receptor 3 (EPHB3, Homo sapiens, UniProt P54753)", "observed": "cell-free assay", "method": "competition with immobilised ligand", "remaining binding": "99%"}
{"target": "Serine/threonine-protein kinase pim-1 (PIM1, Homo sapiens, UniProt P11309)", "observed": "cell-free assay", "method": "competition with immobilised ligand", "remaining binding": "96%"}
{"target": "Focal adhesion kinase 1 (PTK2, Homo sapiens, UniProt Q05397)", "observed": "cell-free assay", "method": "competition with immobilised ligand", "remaining binding": "100%"}
{"target": "Tyrosine-protein kinase Mer (MERTK, Homo sapiens, UniProt Q12866)", "observed": "cell-free assay", "method": "competition with immobilised ligand", "remaining binding": "80%"}
{"target": "Vascular endothelial growth factor receptor 3 (FLT4, Homo sapiens, UniProt P35916)", "observed": "cell-free assay", "method": "competition with immobilised ligand", "remaining binding": "75%"}
{"data": "Sample 2", "cell line": "mouse MPNST tumor cells", "method": "high-content nuclear imaging", "item": "cell number", "tested at": "10 µM", "time": "12 h", "setting": "mean of 2 replicates", "reference": "plate mean", "reading": "higher = more cells"}
{"SMILES": "Nc1nc2c(ccc3ccccc32)s1", "nuclei count": "1.96 z-score"}
{"SMILES": "CC1=C(C(=O)Nc2cc3cn[nH]c3cc2F)C(c2ccc(C(F)(F)F)cc2)CC(=O)N1 (stereo not shown)", "nuclei count": "1.01 z-score"}
{"SMILES": "C[C@H](N[C@@H](CCc1ccccc1)C(=O)O)C(=O)N1CCC[C@H]1C(=O)O", "nuclei count": "0.658 z-score and 1.24 z-score"}
{"SMILES": "CC(C)c1ccc(NC(=O)c2cccs2)c(-c2nc3ccccc3[nH]c2=O)c1", "nuclei count": "0.0923 z-score"}
{"data": "Sample 3", "observed": "AlphaScreen signal", "method": "AlphaScreen counter screen", "sample": "His6 peptide without bromodomain", "tested at": "50 µM", "setting": "assay interference check"}
{"SMILES": "O=C1NCCc2[nH]c(-c3ccnc(-c4cnc5ccccc5c4)c3)cc21", "inhibition [%]": 15.8}
{"SMILES": "Nc1cc2ncnc(Nc3cccc(Br)c3)c2cc1N", "inhibition [%]": 62.5}
{"SMILES": "CCOC(=O)CC(=O)CSc1ccc2nnc(-c3ccc(OC)c(OC)c3)n2n1", "inhibition [%]": 10.4}
{"SMILES": "O=C1NC(=O)/C(=C/c2ccc(-c3nc4ccccc4s3)o2)S1", "inhibition [%]": 3.5}
{"data": "Sample 4", "cell line": "A-375", "tested at": "100 µM", "time": "36 h"}
{"Compound": "CC(C)[C@H](NC(=O)[C@H](CC(=O)O)NC(=O)[C@H](CCCCN)NC(=O)[C@@H](N)CCCN=C(N)N)C(=O)N[C@@H](Cc1ccc(O)cc1)C(=O)O", "viability [%]": 106}
{"Compound": "O=C1[C@@H]2[C@H]3CC[C@H](C3)[C@@H]2C(=O)N1C[C@@H]1CCCC[C@H]1CN1CCN(c2nsc3ccccc23)CC1", "viability [%]": 95.2}
{"Compound": "Cn1c(=O)c2c(ncn2CCO)n(C)c1=O", "viability [%]": 102}
{"data": "Sample 5", "target": "OGT, full length, His-tagged (human)", "method": "phage display, sequencing", "sample": "in vitro", "tested at": "1 µg OGT", "setting": "single substitutions, 15-mer displayed peptide, unchanged parent 16.7", "reference": "input library", "reading": "higher = stronger binding", "parent": "peptide; NSEYMPQYQIIFAHQ"}
{"Variant": "NSEYMPQGQIIFAHQ [Y8G]", "fold enrichment": "0.716 fold"}
{"Variant": "NSEYMAQYQIIFAHQ [P6A]", "fold enrichment": "0.877 fold"}
{"Variant": "NSEYMPQYQIIFAHF [Q15F]", "fold enrichment": "7.88 fold"}
{"Variant": "NSEYMPQYQIIFARQ [H14R]", "fold enrichment": "18.6 fold"}
{"Variant": "NSVYMPQYQIIFAHQ [E3V]", "fold enrichment": "14.4 fold"}
{"Variant": "NSEYMPQYYIIFAHQ [Q9Y]", "fold enrichment": "3.53 fold"}
{"Variant": "NSEVMPQYQIIFAHQ [Y4V]", "fold enrichment": "1.07 fold"}
{"Variant": "NSEYMPQFQIIFAHQ [Y8F]", "fold enrichment": "2.8 fold"}
{"data": "Sample 6", "cell line": "Huh-7", "tested at": "10 µM", "time": "24 h"}
{"Compound": "O=[N+]([O-])OCC(CO[N+](=O)[O-])O[N+](=O)[O-]", "viability [%]": 95.6}
{"Compound": "CC[C@H]1OC(=O)C[C@@H](O)[C@H](C)[C@@H](O[C@@H]2O[C@H](C)[C@@H](O[C@H]3C[C@@](C)(O)[C@@H](O)[C@H](C)O3)[C@H](N(C)C)[C@H]2O)[C@@H](CC=O)C[C@@H](C)C(=O)/C=C/C(C)=C/[C@@H]1CO[C@@H]1O[C@H](C)[C@@H](O)[C@@H](OC)[C@H]1OC", "viability [%]": 102}
{"Compound": "CC1(C)O[C@@H]2[C@@H](CO[C@@]3(COS(N)(=O)=O)OC(C)(C)O[C@@H]23)O1", "viability [%]": 100}
{"note": "Repeated from above (sample 6):"}
{"Compound": "CC[C@H]1OC(=O)C[C@@H](O)[C@H](C)[C@@H](O[C@@H]2O[C@H](C)[C@@H](O[C@H]3C[C@@](C)(O)[C@@H](O)[C@H](C)O3)[C@H](N(C)C)[C@H]2O)[C@@H](CC=O)C[C@@H](C)C(=O)/C=C/C(C)=C/[C@@H]1CO[C@@H]1O[C@H](C)[C@@H](O)[C@@H](OC)[C@H]1OC", "viability [%]": 102}
{"Compound": "CC1(C)O[C@@H]2[C@@H](CO[C@@]3(COS(N)(=O)=O)OC(C)(C)O[C@@H]23)O1", "viability [%]": 100}
